Published values collected from several papers.
Numbers after ± are the reported error.
MDM2 N-terminal domain 17-125: E3 ubiquitin-protein ligase Mdm2, N-terminal domain 17-125 (MDM2, Homo sapiens, UniProt Q00987)
Chain of UniProt Q00987 (whole entry, looked up): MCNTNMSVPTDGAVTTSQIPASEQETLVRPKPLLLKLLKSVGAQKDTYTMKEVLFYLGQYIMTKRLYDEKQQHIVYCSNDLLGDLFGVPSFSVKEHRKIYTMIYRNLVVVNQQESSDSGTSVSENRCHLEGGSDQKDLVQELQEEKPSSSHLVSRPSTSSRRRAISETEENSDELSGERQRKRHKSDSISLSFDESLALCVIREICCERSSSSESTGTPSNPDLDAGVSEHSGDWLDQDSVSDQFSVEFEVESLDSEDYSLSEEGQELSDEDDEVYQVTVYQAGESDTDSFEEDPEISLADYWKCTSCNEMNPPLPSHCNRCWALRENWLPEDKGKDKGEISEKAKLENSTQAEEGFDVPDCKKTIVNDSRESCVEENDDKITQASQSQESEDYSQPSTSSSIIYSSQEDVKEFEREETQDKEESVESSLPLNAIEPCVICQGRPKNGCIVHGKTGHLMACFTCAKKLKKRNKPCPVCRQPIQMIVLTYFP
MDM2 with p53: E3 ubiquitin-protein ligase Mdm2, with p53 (MDM2, Homo sapiens, UniProt Q00987)
MDM2: E3 ubiquitin-protein ligase Mdm2 (MDM2, Homo sapiens, UniProt Q00987)

`Nc1ncnc2c1ncn2[C@@H]1O[C@H](COP(=O)(O)OP(=O)(O)OP(=O)(O)O)[C@@H](O)[C@H]1O` has a Kd of about 4000 nM (E3 ubiquitin-protein ligase Mdm2, RING domain 400-491 (MDM2, Homo sapiens, UniProt Q00987); isothermal titration calorimetry; 100 nM protein).
The IC50 of `CC(C)(C)c1ccc2[c](c1)[Au-]1([Cl])[c]3cc(C(C)(C)C)ccc3-c3cncc-2[n+]31` is reported as 48800 ± 3100 nM (MDM2 N-terminal domain 17-125; MDM2-p53 binding, inhibitor, fluorescence polarization; pH 7.4).
`CC(=O)N(CC(=O)N(C)CC(=O)N(CC(=O)N(C)CC(=O)N(CCC(C)(C)C)CC(=O)N1CCNCC1)Cc1c[nH]c2cc(Cl)ccc12)Cc1ccccc1` — result for Kd: “no binding” (MDM2 N-terminal domain 17-125; isothermal titration calorimetry; 25 °C).
`Cc1cccc(OCC(=O)N(Cc2ccco2)Cc2ccccc2F)c1C` gave an IC50 of 870 ± 160 nM (MDM2 with p53; inhibitor).
The IC50 of `COc1cc(C(=O)NCCOCCOCCOCCNC(=O)c2ccc(F)nc2)ccc1NC(=O)C1NC(CC(C)(C)C)C(C#N)(c2ccc(Cl)cc2F)C1c1cccc(Cl)c1F` (centres unmarked) is reported as 119 nM (MDM2; ligand displacement, FP).
The IC50 of `CC(C)C[C@H](NC(=O)[C@H](CC(=O)O)NC(=O)[C@H](CO)NC(=O)[C@H](Cc1ccccc1)NC(=O)[C@@H](NC(=O)[C@H](CCC(=O)O)NC(=O)CNC(=O)[C@@H](N)CO)[C@@H](C)O)C(=O)N[C@@H](Cc1c[nH]c2ccccc12)C(=O)N[C@@H](CCCCN)C(=O)N[C@@H](CC(C)C)C(=O)N[C@@H](CC(C)C)C(=O)N1CCC[C@H]1C(=O)N[C@@H](CCC(=O)O)C(=O)N[C@@H](CC(N)=O)C(=O)O` is reported as 4100 nM (E3 ubiquitin-protein ligase Mdm2, p53-binding domain (MDM2, Homo sapiens, UniProt Q00987); p53 binding, inhibitor, ELISA competition; together with: HDM2 4 nM).
The Kd of `CC(=O)N[C@H](C(=O)N[C@@H](CO)C(=O)N[C@@H](Cc1ccccc1)C(=O)N[C@]1(C)CCCCCCCCCCC[C@@](C)(C(N)=O)NC(=O)[C@H](CC(C)C)NC(=O)[C@H](CC(C)C)NC(=O)[C@H](C)NC(=O)[C@H](Cc2c[nH]c3ccccc23)NC(=O)[C@H](Cc2ccc(O)cc2)NC(=O)[C@H](CCC(=O)O)NC1=O)[C@@H](C)O` is reported as 209 nM (MDM2; cell-free assay, FP; pH 7.4).
`CC(C)[C@@H](CS(=O)(=O)C(C)C)N1C(=O)[C@@](C)(CC(=O)NCCCNC(=O)c2ccc(F)nc2)C[C@H](c2cccc(Cl)c2)[C@H]1c1ccc(Cl)cc1` gave an IC50 of 37.9 nM (MDM2; ligand displacement, FP).
With `O=C(c1ccc(F)cc1)N(Cc1cccc(Cl)c1)Cc1ccco1` the IC50 was 730 ± 104 nM (MDM2 with p53; inhibitor).
`CC(=O)N[C@@H](CC(C)C)C(=O)N[C@H](C(=O)N[C@@H](Cc1ccccc1)C(=O)N[C@@H]1CSCc2ccc(cn2)-c2ccc(nc2)CSC[C@@H](C(=O)N[C@@H](CO)C(=O)NCCCNCCCCNCCCN)NC(=O)[C@H](CC(C)C)NC(=O)[C@H](CCC(N)=O)NC(=O)[C@H](C)NC(=O)[C@H](Cc2c[nH]c3ccccc23)NC(=O)[C@H](Cc2ccc(O)cc2)NC(=O)[C@H](Cc2c[nH]cn2)NC1=O)[C@@H](C)O` gave an IC50 of 18 ± 2 nM (MDM2 with p53; binding, inhibitor, ELISA).
For `CC(=O)N[C@@H](CC(C)C)C(=O)N[C@H](C(=O)N[C@@H](Cc1ccccc1)C(=O)N[C@]1(C)CCCCCCCCCCC[C@@](C)(C(=O)N[C@@H](CO)C(=O)N[C@@H](C)C(=O)N[C@@H](C)C(N)=O)NC(=O)[C@H](CC2CCC2)NC(=O)[C@H](CCC(N)=O)NC(=O)[C@H](C)NC(=O)[C@H](Cc2c[nH]c3ccccc23)NC(=O)[C@H](Cc2ccc(O)cc2)NC(=O)[C@H](CCC(=O)O)NC1=O)[C@@H](C)O`, the Kd was 113 nM (MDM2; cell-free assay, FP; pH 7.4).
